Experimental data gathered from unrelated publications.
Numbered parts are unrelated; each lists some results of a single study.

Set 1
Target: RNA binding protein fox-1 homolog 2, RRM domain, GST-SBP tag (RBFOX2, Homo sapiens, UniProt O43251-10, residues 100-194)
Technique: RNA Bind-n-Seq
Form: RNA
Matrix: in vitro
Tested at: 365 nM
Notes: natural RNA segment, single round, ends assumed
Baseline: no-protein control
Reading: higher = stronger binding
Constant ends, left off below: GGGAGUUCUACAGUCCGACGAUC … UGGAAUUCUCGGGUGCCAA
Construct (chain): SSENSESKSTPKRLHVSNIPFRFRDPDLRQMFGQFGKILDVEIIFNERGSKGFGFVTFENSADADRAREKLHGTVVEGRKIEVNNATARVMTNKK
| Strand | RBNS enrichment (R) |
| --- | --- |
| GAACCAAGCGUUUCUGUGGGAUUGAGACUGGUACGUGUACGAUGAACCUGCUGCUUUGUUUUCUGAGAAGAGGUUUGAAGACAUUUUAUUAACAGCUUAAUUUUUCUCUU | 0.414 |
| GAAAAGGGGGCAAGGUUUUGGCAUUAGAUGCACUUAACCCGGCUUCCACCAGCUUCUUCCCCUCUUCUCAGUCAUUACUGAGAAGGAUUGGUAUUCAAAGCAAAACUGAC | 0.195 |
| AAUAAAUAUGAAGUAAGAUUACAACAGAGCAGAACUUGCACCCACCAUUUUUUUUACCUGAUUUUUGUUUUCAAAUAAGAAUGUAAGCAUUUUACUUAAAUUUUACUGUU | 0.948 |
| CAAAUAGCUGAGCCAAAAGGCUGAUCAGAAUUCACUUUUUGGAAUGUGGCAGUUAAACACUACCUUGAUCAUUCUCUCCUCUUUCCUCGAGGAACUCCUGGAGGGUUUGA | 0.25 |
| GCCGCCGGUAACAGGGGCCGCCGGCCAAAGGCCCCUUUCCAGUCAUAGCACUGAAGUUGCAACUUUUUUCUUGUAAUUGUUUUGCUACUAAGAUAAUUUCAGAAGUUCAG | 0.605 |
| CUUUCUAGUGCCCAUCUUGGCUCUCCAGCUGCAAGUUGCACAGCCAUAACCUAAGACUUUAAAAUAAGGCCACACCCAGAUUUGGGAAGGUAGAGGGGGAAAAAAAGUAG | 0.276 |
| CUUUUUAAUUUCCAGAACUGCACAAUGACCAGCAGGAGGGAAGGACAGACAUCAAGUGCCAGAUGUUGUCUGAACUAAUCGAGCACUUCUCACCAAACUUCAUGUAUAAA | 0.436 |

Set 2
Target: Fragile X messenger ribonucleoprotein 1, C-terminal low-complexity region (Fmr1, Mus musculus, UniProt P35922)
Technique: RNA Bind-n-Seq
Form: RNA
Matrix: in vitro
Tested at: 200 nM
Notes: whole 134-nt RNA, ends assumed
Added: 150 mM LiCl
Baseline: input library
Reading: higher = stronger binding
All molecules: 7-deaza-guanosine replaces G
Constant ends, left off below: GGGAGUUCUACAGUCCGACGAUC … UGGAAUUCUCGGGUGUCAAGG
| Strand | log2 enrichment |
| --- | --- |
| UGGGAGGUGGAUUUUGUUUAUUUUUUUAGCUCAUUUCCAGGGGAGGGAAUUUUUUUUUAAUAUGUGUCAUGAAUAAAGUUGUUUUUGAAA | -0.289 |
| UCAAGUCCUGUGCUACACAUCGUAUGUACCGAAUCGGCCCGGGCCCGGCCCGGGAAAGUAUUAUGUUACGCCGUUCGGAUCUGCACUUCC | -1.29 |
| UCAAGUCCUGUGCUACACAUCGUAUGUACCGAAUCGGCCCGGCCCGGGCCCGGGGAAAGUAUUAUGUUACGCCGUUCGGAUCUGCACUUC | -1.51 |
| GUCCUGUGCUACACAUCGUAUGUACCGAAUCGGGAAAAAAAGGGAAAAAAAGGGAGGGAAAGUAUUAUGUUACGCCGUUCGGAUCUGCAC | 0.271 |
| CCUCAAGUCCUGUGCUACACAUCGUAUGUACCGAAUCGGCCGGCCGGGGCCGGAAAGUAUUAUGUUACGCCGUUCGGAUCUGCACUUCCA | 1.42 |

Set 3
Target: Interferon regulatory factor 7, full length, phosphomimetic (IRF7, Homo sapiens, UniProt Q92985, residues 1-503, S471D/S472D/S475D/S476D/S477D/S483D/S484D/S487D)
Sequence of UniProt Q92985 (whole entry, unmodified, looked up): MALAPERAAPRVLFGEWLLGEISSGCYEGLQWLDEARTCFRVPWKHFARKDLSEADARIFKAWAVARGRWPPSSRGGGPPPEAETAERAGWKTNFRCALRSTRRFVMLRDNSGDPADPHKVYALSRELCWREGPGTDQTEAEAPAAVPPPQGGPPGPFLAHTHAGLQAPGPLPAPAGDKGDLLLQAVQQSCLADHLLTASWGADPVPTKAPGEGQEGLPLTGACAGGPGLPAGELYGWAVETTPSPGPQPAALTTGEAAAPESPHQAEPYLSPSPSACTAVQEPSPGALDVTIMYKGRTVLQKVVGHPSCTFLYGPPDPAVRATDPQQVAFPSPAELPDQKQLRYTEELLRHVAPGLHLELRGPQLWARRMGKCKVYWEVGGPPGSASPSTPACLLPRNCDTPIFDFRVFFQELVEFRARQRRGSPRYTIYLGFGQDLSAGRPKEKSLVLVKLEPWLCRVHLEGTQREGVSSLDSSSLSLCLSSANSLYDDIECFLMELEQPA
Technique: protein-binding microarray
Form: double-stranded DNA, one strand shown
Matrix: in vitro
Tested at: 2200 nM top
Notes: 60-bp whole probe
Added: salmon DNA 0.4 mg/ml
Baseline: random background probes
Reading: higher = stronger binding
Constant ends, left off below: GCCTAGCAC … GTCTTGATTCGCTTGACGCTGCTG
| Strand | fitted relative affinity [z-score] |
| --- | --- |
| TTAGAACTTAGTTTCGATTAGTGCTAG | 6.05 |
| ATGAGTCTCAATATTAGAGTGTGCTAG | -0.0428 |
| TTTTGCTTTCCTTTATGTACGTGCTAG | 8.09 |
| TAAGATTTCGGGTTTCGATTAGTGCTA | 5.95 |
| GAGGATATCGGGTTTCGAGACGTGCTA | 1.36 |
| TTAGGTATCGGGTTTCTGTTAGTGCTA | 1.74 |
| TTAGTTATCGACTTTCGGTTAGTGCTA | 6.69 |

Mixed results
| Molecule | target | assay | system | conditions | scale | endpoint | value |
| --- | --- | --- | --- | --- | --- | --- | --- |
| PhoQ, residues 284 288 289 292 302 303 TNSAEL | PhoP, residues 12 14 15 18 19 NHTVL (Escherichia coli, UniProt P23836) | Sort-seq, measured: YFP reporter | E. coli | PhoQ-PhoP variant library, added: 10 µM Mg2+ | baseline: high Mg2+ state, higher = stronger signaling | fold induction | 1.05 |

Some of these lines once more (set 2):
| Strand | log2 enrichment |
| --- | --- |
| UCAAGUCCUGUGCUACACAUCGUAUGUACCGAAUCGGCCCGGGCCCGGCCCGGGAAAGUAUUAUGUUACGCCGUUCGGAUCUGCACUUCC | -1.29 |
| UCAAGUCCUGUGCUACACAUCGUAUGUACCGAAUCGGCCCGGCCCGGGCCCGGGGAAAGUAUUAUGUUACGCCGUUCGGAUCUGCACUUC | -1.51 |
